Published values gathered from unrelated publications.
A part holds a random share of what one study measured. Changes are numbered by the printed parent chain.

Sample 1
Target: tungstate, free oxyanion
Technique: microfluidic competitive inhibition
Sample: in vitro, cell-free expressed
Concentration: not given
Setting: derived from inhibition constants, unchanged parent 2230 nM
Direction: lower = stronger binding
Quantity: oxyanion analog dissociation constant
Starting sequence: PafA, mature enzyme, eGFP fusion (Elizabethkingia meningoseptica, UniProt Q9KJX5); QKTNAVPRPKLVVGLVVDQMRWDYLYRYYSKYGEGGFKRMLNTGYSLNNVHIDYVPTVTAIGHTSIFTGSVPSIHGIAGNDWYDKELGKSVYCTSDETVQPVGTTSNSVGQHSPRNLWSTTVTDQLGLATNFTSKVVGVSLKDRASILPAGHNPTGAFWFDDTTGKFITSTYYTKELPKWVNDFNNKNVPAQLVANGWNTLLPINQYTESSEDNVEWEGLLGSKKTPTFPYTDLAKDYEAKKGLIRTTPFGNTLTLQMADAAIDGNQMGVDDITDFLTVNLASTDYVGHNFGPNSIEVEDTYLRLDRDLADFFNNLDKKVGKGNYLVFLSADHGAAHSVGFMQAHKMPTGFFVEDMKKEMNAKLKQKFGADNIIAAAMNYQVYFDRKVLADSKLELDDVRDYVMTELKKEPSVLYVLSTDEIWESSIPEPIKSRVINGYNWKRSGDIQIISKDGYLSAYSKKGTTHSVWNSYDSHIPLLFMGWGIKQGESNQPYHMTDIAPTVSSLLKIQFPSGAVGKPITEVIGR
L396V: 2.13 µM
N182V: 2.3 µM
E86G: 1.76 µM
R526V: 3.55 µM

Sample 2
Target: CCNB1, cyclin fold, Cln2 fusion (human)
Technique: yeast growth competition, sequencing
Sample: yeast
Setting: strong parent motif
Baseline: not given
Direction: higher = stronger binding
Quantity: normalised enrichment score
Starting sequence: viral docking peptide; YKVKRRLVFGADD; partner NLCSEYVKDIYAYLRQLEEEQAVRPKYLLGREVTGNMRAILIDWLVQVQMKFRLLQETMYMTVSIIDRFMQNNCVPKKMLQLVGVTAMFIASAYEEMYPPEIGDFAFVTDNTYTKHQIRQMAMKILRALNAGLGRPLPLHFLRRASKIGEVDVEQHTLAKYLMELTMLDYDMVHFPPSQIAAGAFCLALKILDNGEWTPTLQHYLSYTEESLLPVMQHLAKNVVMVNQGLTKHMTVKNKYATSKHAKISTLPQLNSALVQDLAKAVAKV
R6C: 2.37
F9L: 1.01
R5E: 0.724
A11N: 4.29
V8P: 0.272
A11C: 3.7
A11D: 5
K2T: 4.28
F9H: 0.179
R5V: 1.85
G10N: 3.95
F9Q: 0.549
D12T: 2.77
V8Y: 3.72

Sample 3
Target: PABPC1L2, full length, GST fusion (mouse, UniProt A0ABA7IW68)
Technique: RNAcompete
Molecule type: RNA
Sample: in vitro
Concentration: 20 nM
Setting: 7-mer, probes averaged, single round
Baseline: mean of 7-mers
Direction: higher = stronger binding
Quantity: 7-mer Z-score
Residues (chain): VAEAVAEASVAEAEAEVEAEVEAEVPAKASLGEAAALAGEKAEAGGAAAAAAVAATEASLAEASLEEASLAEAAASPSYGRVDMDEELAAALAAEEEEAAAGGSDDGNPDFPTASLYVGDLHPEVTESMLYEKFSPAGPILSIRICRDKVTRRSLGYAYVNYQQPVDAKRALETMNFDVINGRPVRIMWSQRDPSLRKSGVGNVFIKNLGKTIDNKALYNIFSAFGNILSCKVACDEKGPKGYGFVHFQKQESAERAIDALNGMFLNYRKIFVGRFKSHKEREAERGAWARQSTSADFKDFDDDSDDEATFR
UGAAGUG: -0.17
UGAGGUU: -0.228
UCCUCUU: -0.411
GAGGAUC: -0.128
UCUGGAU: -0.195
CGCGGUA: -0.193
UCCGCUA: -0.211
ACUGUAC: -0.166

Sample 4
Target: ABI1, truncated, D143A, DHFR fusion (Arabidopsis thaliana)
Technique: DHFR PCA, deep sequencing
Sample: yeast
Setting: methotrexate growth selection, single substitutions
With: (+)-ABA 0 µM
Baseline: wild-type fitted maximum
Direction: higher = stronger binding
Quantity: relative binding score
Starting sequence: PYL1, truncated, DHFR fusion (Arabidopsis thaliana); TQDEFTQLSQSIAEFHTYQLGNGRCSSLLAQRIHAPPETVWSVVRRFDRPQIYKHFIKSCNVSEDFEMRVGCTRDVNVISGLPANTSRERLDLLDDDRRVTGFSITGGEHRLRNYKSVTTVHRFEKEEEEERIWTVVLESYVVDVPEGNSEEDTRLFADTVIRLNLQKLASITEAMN; partner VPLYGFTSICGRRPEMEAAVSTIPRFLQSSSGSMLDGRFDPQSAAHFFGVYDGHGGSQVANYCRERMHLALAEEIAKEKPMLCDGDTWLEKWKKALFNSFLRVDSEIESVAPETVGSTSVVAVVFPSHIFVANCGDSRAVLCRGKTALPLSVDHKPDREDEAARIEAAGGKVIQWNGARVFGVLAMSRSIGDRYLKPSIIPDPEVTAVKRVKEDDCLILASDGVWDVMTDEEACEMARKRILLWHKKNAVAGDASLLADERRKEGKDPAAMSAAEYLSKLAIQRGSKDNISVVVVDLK
F47D: -6.66%
I57V: 13.9%
S26F: 1.76%
V121D: -2.77%
S42I: -1.02%
C25V: 61.5%
P146V: 26.8%
Q167D: 2.48%

Some of these lines once more (sample 2):
F9Q: 0.549
V8P: 0.272
D12T: 2.77
